{"data": "Results gathered from unrelated publications", "target": "Cytochrome P450 2C19 (CYP2C19, Homo sapiens, UniProt P33261)", "note": "Protocols differ between the studies behind these lines. ± marks the error that the study gave.", "sequence of UniProt P33261 (whole entry, looked up)": "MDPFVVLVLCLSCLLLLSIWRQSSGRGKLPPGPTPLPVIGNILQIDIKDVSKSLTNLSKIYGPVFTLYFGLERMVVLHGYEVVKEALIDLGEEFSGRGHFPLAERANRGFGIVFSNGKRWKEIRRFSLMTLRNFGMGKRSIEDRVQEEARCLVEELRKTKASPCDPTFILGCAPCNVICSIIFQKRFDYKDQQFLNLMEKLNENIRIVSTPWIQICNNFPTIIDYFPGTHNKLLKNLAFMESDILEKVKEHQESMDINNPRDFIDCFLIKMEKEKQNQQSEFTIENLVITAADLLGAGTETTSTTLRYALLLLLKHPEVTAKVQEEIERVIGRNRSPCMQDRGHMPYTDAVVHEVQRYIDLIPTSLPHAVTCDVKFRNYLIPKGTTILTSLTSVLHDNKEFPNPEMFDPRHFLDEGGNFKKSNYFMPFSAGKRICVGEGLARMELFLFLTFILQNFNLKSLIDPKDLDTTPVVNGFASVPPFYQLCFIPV"}
{"Compound": "CC(C)=CCc1c(O)cc(O)c2c1O[C@H](c1ccc(O)cc1)CC2=O", "setting": "1 µM, pH 7.4", "endpoint": "inhibition", "result": "43.8 ± 0.2%"}
{"Compound": "COc1ccc2[nH]c([S+]([O-])Cc3ncc(C)c(OC)c3C)nc2c1 (centres unmarked)", "assay": "item: 5-hydroxyomeprazole", "test system": "human healthy subjects, plasma", "setting": "oral, alone, median, added: midazolam", "endpoint": "Tmax", "result": "4 h"}
{"Compound": "C=CC(=O)N(C)CCOc1c(N)ncnc1-c1cc(F)cc(NC(=O)c2ccc(C3CC3)cc2F)c1C", "test system": "recombinant human CYP", "endpoint": "fraction metabolised by CYP", "result": "1%"}
{"Compound": "N#C[C@H](C[C@@H]1CCCNC1=O)NC(=O)[C@H](CC1CC1)NC(=O)c1cc2cccc(Cl)c2[nH]1", "assay": "NADPH metabolic stability", "setting": "2 µM, pH 7.4", "endpoint": "half-life", "result": "> 0.167 h"}
{"Compound": "COc1ccc2[nH]c([S+]([O-])Cc3ncc(C)c(OC)c3C)nc2c1 (centres unmarked)", "test system": "human, plasma", "setting": "oral, 20 mg, added: single dose encorafenib and binimetinib", "how to read": "baseline: Day -7 probe alone", "endpoint": "AUClast increase", "result": "~26%"}
{"Compound": "Cc1cccc(F)c1N1CCC(N2Cc3cn(CC(C)(F)F)nc3N(Cc3ccccc3C(F)(F)F)C2=O)CC1", "assay": "inhibitor", "test system": "healthy male human", "setting": "100 mg, added: omeprazole 20 mg single dose", "how to read": "baseline: omeprazole alone", "endpoint": "omeprazole AUC increase", "result": "1.9 fold"}
{"Compound": "COc1cc(O)c(CC=C(C)C)c2c1C(=O)CC(c1ccc(O)cc1)O2 (centres unmarked)", "assay": "enzyme activity, inhibitor", "test system": "human liver microsomes", "setting": "10 µM, pH 7.4, added: (S)-mephenytoin", "endpoint": "inhibition", "result": "> 90%"}
{"Compound": "COc1ccc2nc([S+]([O-])Cc3ncc(CO)c(OC)c3C)[nH]c2c1 (centres unmarked)", "test system": "human, plasma", "setting": "oral, 20 mg omeprazole, probe alone Day -7", "how to read": "baseline: 5-hydroxyomeprazole over omeprazole", "endpoint": "metabolite to parent Cmax ratio", "result": 0.273}
{"note": "Repeated from above:"}
{"Compound": "COc1ccc2[nH]c([S+]([O-])Cc3ncc(C)c(OC)c3C)nc2c1 (centres unmarked)", "assay": "item: 5-hydroxyomeprazole", "test system": "human healthy subjects, plasma", "setting": "oral, alone, median, added: midazolam", "endpoint": "Tmax", "result": "4 h"}
